# Measurements of several laboratories.
# Numbered parts are unrelated; each lists some results of a single study. Substitutions count along the parent as printed.

# Study 1 — method: protein binding microarray; form: double-stranded DNA, one strand shown; sample: in vitro; tested at: not given; reference: not given; direction: higher = stronger binding
# Target: Histone acetyltransferase KAT6A, winged helix 2, GST fusion (KAT6A, Homo sapiens, UniProt Q92794, residues 85-181)
# Notes: 8-mer, flanks averaged, mean of 2 arrays, mostly near background
# Construct (chain): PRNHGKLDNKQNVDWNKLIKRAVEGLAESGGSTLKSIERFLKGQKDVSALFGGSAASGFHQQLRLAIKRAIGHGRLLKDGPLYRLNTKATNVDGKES
Sequence,E-score
CCGACAAA,0.186
CCAGATTC,0.00795
GTATGGGA,-0.129
CAGTGGGC,0.0923
TAGAACGA,0.0207
CTCCTCCC,0.197
CAACCCAA,-0.0972
AAAATACG,-0.107
CGCCCTAG,0.123
AGCATACA,0.17
CGGTGTTC,0.0708
AACTCTTC,-0.0738
ACGATCGT,-0.111
TCTACTAA,0.062
AACGGGCA,-0.0495
ACATGTCA,-0.177
ACACCAAT,-0.137

# Study 2 — target: UBE2U UBC core domain (UniProt Q5VVX9); method: yeast two-hybrid; sample: yeast; notes: mostly zero background; reference: not given; direction: higher = stronger interaction
# B1: TRIM47 RING domain (UniProt Q96LD4); chain MDGSGPFSCPICLEPLREPVTLPCGHNFCLACLGALWPHRGASGAGGPGGAARCPLCQEPFPDGLQLR
# B2: PJA2 RING domain (UniProt O43164); chain DHTAIGQEQCCPICCSEYIKDDIATELPCHHFFHKPCVSIWLQKSGTCPVCRRHFPPAVIEA
# B3: RFPL3 RING domain (UniProt O75679); chain MAALFQEASSCPVCSDYLEKPMSLECGCTVCLKCINSLQKEPHGEDLLCCCCSMVSQRNKIRP
# B4: TRIM68 RING domain (UniProt Q6AZZ1); chain LVEAIVEEVACPICMTFLREPMSIDCGHSFCHSCLSGLWEIPGESQNWGYTCPLCRAPVQPRNLRP
# B5: RNF32 RING domain (UniProt Q9H0A6); chain VQALRRETHECSICLAPLSAAGGQRVGAGRRSREMALLSCSHVFHHACLLALEEFSVGDRPPFHACPLCRSCYQKKILEC
# B6: ARIH1 RING domain (UniProt Q9Y4X5); chain NTRSSAQDMPCQICYLNYPNSYFTGLECGHKFCMQCWSEYLTTKIMEEGMGQTISCPAHGCDILVDDNTVM
# B7: CBLL1 RING domain (UniProt Q75N03); chain GEKDDTPVHFCDKCGLPIKIYGRMIPCKHVFCYDCAILHEKKGDKMCPGCSDPVQRIEQCT
# B8: RNF11 RING domain (UniProt Q9Y3C5); chain RDGSEKKIRECVICMMDFVYGDPIRFLPCMHIYHLDCIDDWLMRSFTCPSCMEPVDAALLSS
# B9: UBE4B RING domain (UniProt O95155); chain KNARAEIDYSDAPDEFRDPLMDTLMTDPVRLPSGTIMDRSIILRHLLNSPTDPFNRQTLTESMLEPVPELKEQIQAWMREKQNSDH
# Residues (chain): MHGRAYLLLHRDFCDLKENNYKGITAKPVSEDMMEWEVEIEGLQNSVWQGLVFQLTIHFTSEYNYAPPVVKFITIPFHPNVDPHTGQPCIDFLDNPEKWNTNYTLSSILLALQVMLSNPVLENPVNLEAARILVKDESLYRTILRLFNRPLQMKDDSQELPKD
Molecule,lacZ reporter activity
AAQLLEEKLTCAICLGLYQDPVTLPCGHNFCGACIRDWWDRCGKACPECREPFPDGAELR (TRIM65 RING domain (UniProt Q6PJ69)),12500
B1 (TRIM47 RING domain),17500
B2 (PJA2 RING domain),10700
B3 (RFPL3 RING domain),0
KITELNPHLMCALCGGYFIDATTIVECLHSFCKTCIVRYLETNKYCPMCDVQVHKTRPLL (PCGF2 RING domain (UniProt P35227)),17300
B4 (TRIM68 RING domain),3500
EDVLSKDAGECAICLEELQQGDTIARLPCLCIYHKGCIDEWFEVNRSCPEHPSD (ZNRF2 RING domain (UniProt Q8NHG8)),8720
B5 (RNF32 RING domain),7970
B6 (ARIH1 RING domain),7440
B7 (CBLL1 RING domain),0
SNNDLASLFECPVCFDYVLPPILQCQSGHLVCSNCRPKLTCCPTCRGPLGSIRNLA (SIAH1 RING domain (UniProt Q8IUQ4)),16600
B8 (RNF11 RING domain),11500
B9 (UBE4B RING domain),0

# Study 3 — target: CCND1, cyclin fold, Cln2 fusion (human); method: yeast growth competition, sequencing; sample: yeast; notes: weak parent motif; reference: not given; direction: higher = stronger binding
# Parent: CDAN1 docking peptide (human); RGARSQLFPPTEA
Substitution,normalised enrichment score
RGARSQLFPPTAA [E12A],0.0411
RGARAQLFPPTEA [S5A],0.149
RGARSALFPPTEA [Q6A],-0.197
RGARSQLFPPAEA [T11A],-0.00481
RGAASQLFPPTEA [R4A],-0.0553
RAARSQLFPPTEA [G2A],-0.115

# Study 4 — target: MAFF, bZIP domain (human); method: DHFR protein complementation; sample: yeast; reference: wild-type JUN-FOS pair; direction: higher = stronger binding
# Notes: single substitutions, most at no-binding floor
# Parent: JUN, bZIP domain (human); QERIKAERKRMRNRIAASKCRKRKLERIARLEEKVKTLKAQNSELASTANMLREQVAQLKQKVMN; partner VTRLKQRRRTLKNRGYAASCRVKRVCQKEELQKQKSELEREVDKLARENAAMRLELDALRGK
Substitution,binding fitness [natural log]
S47H,-1.43
K39Q,-1.47
E44S,-1.48
I28S,-1.54
S43R,-1.46
E33A,-1.35
S47Q,-1.32
R30N,-1.33
A46V,-1.47
T48V,-1.44
S43V,-1.47
Q41H,-1.41
K34V,-1.41
L45M,-1.5
K39G,-1.49
K34C,-1.42
I28C,-1.37
V35G,-1.46
R30P,-1.44

# Some of these lines once more (study 4):
Substitution,binding fitness [natural log]
Q41H,-1.41
R30P,-1.44
E33A,-1.35
K39Q,-1.47
S43V,-1.47
